Published values pooled from the literature.
Each numbered part is a random draw from the data of one study; scales do not carry over between parts. Positions count from the first letter of the parent shown.
UniProt P07333, sequence (whole entry, looked up): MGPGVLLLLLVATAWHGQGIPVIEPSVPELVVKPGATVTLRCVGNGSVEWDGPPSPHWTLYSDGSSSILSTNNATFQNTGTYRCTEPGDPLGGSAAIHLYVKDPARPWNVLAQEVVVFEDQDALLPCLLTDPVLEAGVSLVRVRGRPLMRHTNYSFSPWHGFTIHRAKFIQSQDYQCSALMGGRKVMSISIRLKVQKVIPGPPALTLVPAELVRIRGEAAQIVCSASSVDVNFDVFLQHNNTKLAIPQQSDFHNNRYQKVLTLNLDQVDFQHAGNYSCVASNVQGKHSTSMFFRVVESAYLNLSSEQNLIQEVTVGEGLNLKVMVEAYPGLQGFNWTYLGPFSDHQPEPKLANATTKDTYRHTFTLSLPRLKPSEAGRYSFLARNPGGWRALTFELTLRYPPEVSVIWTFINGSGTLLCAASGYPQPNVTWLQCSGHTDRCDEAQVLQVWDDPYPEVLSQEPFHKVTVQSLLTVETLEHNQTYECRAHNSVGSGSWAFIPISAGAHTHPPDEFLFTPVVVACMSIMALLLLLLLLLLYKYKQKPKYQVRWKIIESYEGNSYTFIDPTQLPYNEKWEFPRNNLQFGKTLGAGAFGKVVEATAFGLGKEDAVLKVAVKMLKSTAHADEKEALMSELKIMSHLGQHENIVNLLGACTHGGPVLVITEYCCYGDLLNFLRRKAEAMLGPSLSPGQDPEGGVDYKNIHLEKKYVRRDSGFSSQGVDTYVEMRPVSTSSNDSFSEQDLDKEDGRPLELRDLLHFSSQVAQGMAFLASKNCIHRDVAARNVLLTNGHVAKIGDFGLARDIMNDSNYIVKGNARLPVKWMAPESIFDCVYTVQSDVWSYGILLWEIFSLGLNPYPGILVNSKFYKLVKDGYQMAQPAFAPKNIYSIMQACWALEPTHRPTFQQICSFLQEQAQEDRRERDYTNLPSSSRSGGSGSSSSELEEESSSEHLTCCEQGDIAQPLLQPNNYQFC
UniProt P36896, sequence (whole entry, looked up): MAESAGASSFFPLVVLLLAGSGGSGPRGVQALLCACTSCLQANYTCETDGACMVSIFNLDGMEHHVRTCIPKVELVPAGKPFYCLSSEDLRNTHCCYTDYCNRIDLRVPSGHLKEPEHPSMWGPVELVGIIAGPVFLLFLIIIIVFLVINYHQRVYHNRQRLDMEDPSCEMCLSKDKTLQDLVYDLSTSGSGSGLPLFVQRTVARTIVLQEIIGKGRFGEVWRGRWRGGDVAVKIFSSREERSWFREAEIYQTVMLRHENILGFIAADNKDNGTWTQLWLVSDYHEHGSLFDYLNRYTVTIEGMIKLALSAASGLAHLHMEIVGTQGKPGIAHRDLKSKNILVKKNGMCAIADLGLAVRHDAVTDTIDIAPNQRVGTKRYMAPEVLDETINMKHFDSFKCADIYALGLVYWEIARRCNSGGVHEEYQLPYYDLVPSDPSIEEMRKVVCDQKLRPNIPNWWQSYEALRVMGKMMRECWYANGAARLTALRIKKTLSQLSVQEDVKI
UniProt Q99755, sequence (whole entry, looked up): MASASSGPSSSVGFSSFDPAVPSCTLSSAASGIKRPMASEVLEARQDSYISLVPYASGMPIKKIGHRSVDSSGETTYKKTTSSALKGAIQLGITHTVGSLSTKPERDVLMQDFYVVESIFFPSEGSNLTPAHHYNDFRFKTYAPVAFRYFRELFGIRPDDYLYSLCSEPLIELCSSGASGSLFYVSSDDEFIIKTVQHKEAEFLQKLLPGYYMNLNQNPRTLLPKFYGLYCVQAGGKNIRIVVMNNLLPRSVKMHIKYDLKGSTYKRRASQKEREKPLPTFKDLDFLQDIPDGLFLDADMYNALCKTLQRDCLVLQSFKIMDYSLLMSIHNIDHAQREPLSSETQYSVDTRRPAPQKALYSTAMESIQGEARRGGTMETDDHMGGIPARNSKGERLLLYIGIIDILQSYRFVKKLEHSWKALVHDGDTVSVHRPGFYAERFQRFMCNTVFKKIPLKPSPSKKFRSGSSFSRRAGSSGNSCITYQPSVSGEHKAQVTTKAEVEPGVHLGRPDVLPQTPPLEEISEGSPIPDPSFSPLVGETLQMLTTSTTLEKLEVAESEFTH
UniProt P53778, sequence (whole entry, looked up): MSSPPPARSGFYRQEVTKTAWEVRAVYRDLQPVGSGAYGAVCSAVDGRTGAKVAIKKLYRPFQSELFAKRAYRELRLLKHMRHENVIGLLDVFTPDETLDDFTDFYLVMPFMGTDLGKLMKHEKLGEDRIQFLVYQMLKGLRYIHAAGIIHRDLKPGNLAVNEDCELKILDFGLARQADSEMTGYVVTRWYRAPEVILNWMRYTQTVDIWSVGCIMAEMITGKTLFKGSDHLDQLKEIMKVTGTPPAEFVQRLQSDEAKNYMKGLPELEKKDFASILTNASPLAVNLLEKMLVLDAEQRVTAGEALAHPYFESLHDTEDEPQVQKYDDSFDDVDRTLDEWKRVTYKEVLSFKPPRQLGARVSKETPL
UniProt P00519, sequence (whole entry, looked up): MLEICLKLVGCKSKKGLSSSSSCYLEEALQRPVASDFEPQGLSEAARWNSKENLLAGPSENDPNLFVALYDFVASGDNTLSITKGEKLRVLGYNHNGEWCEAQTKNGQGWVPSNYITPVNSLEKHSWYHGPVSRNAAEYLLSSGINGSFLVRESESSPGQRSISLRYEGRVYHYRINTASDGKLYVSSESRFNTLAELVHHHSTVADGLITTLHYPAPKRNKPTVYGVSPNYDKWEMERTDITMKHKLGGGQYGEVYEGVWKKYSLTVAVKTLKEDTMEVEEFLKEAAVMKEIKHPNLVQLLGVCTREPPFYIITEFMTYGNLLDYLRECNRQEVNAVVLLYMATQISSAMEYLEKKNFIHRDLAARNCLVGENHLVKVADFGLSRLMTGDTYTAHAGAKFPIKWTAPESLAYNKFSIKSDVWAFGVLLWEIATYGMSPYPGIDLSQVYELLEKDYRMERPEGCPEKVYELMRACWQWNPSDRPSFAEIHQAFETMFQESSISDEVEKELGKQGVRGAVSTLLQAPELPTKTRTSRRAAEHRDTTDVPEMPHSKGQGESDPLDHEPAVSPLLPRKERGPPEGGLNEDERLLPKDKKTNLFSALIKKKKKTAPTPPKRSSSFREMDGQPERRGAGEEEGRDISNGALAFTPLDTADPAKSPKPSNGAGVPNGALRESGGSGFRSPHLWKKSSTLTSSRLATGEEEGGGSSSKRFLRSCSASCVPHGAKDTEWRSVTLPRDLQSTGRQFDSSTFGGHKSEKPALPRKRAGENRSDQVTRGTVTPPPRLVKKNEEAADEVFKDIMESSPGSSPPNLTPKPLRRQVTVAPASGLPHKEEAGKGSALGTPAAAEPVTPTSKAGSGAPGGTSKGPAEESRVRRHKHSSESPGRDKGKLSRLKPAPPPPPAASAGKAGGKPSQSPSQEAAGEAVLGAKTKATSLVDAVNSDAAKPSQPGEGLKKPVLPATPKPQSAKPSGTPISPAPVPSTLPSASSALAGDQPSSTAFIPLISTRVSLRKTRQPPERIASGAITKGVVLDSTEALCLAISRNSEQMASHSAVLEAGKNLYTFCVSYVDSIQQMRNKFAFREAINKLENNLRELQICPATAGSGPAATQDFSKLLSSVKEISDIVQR
UniProt P51955, sequence (whole entry, looked up): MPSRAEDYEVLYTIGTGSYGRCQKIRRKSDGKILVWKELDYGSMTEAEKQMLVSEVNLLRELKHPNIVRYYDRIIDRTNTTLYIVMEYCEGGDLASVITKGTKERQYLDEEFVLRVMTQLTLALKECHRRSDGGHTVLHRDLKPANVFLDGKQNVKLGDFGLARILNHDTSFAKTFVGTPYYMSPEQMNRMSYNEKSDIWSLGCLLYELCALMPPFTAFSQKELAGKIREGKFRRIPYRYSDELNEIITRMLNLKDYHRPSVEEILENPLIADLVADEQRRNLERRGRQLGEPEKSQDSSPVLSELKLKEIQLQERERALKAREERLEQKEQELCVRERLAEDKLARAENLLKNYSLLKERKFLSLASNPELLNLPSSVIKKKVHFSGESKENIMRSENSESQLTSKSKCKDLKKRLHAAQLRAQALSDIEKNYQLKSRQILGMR

Study 1
Structure (SMILES): CNCc1ccccc1-c1csc([C@@H](C)Nc2nc(C)nc3cc(OC)c(OC)cc23)c1
Observed: cell-free assay
Technique: competition with immobilised ligand
Tested at: 1 µM
target	remaining binding
MUSK (Homo sapiens, UniProt O15146)	93%
MAPK12 (Homo sapiens, UniProt P53778)	100%
MAPK7 (Homo sapiens, UniProt Q13164)	97%
PIK3CA (Homo sapiens, UniProt P42336)	69%
MAK (Homo sapiens, UniProt P20794)	100%
Tyrosine-protein kinase ABL1, non-phosphorylated (ABL1, Homo sapiens, UniProt P00519)	80%
ACVR1B (Homo sapiens, UniProt P36896)	91%
SGK1 (Homo sapiens, UniProt O00141)	81%
EPHB3 (Homo sapiens, UniProt P54753)	100%
ROCK1 (Homo sapiens, UniProt Q13464)	91%
Macrophage colony-stimulating factor 1 receptor, autoinhibited (CSF1R, Homo sapiens, UniProt P07333)	100%
NEK2 (Homo sapiens, UniProt P51955)	92%
STK38 (Homo sapiens, UniProt Q15208)	60%
PIP5K1A (Homo sapiens, UniProt Q99755)	75%
MAPK13 (Homo sapiens, UniProt O15264)	100%

Study 2
Target: Serine/threonine-protein kinase Chk2 (CHEK2, Homo sapiens, UniProt O96017)
UniProt O96017, sequence (whole entry, looked up): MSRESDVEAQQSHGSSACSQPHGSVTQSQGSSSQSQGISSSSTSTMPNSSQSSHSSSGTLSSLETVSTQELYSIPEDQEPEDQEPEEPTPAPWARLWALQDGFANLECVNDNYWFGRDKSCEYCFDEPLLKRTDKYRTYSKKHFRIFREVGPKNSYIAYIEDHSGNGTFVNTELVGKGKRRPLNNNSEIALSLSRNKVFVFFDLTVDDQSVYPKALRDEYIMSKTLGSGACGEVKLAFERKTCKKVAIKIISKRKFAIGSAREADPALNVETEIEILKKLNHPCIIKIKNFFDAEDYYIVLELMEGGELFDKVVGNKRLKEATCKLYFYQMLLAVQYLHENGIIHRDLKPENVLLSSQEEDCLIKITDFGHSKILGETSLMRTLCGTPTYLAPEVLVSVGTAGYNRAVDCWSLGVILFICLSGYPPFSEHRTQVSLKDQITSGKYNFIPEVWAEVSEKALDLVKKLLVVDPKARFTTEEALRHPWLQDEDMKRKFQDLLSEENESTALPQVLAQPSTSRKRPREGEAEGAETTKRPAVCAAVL
Observed: enzyme activity
Action: inhibitor
Tested at: 0.5 µM
Relative to: control
Compound	remaining activity [%]
O=S(=O)(c1cccc2cnccc12)N1CCCNCC1	98.9
COc1cc2ncnc(Nc3ccc(F)c(Cl)c3)c2cc1OCCCN1CCOCC1	84
COc1ccc(C(=O)Nc2sc3c(c2C(N)=O)CCCC3)cc1OC	93
Nc1ncnc2n[nH]c(Nc3ccc(F)cc3)c12	98.6
Nc1ccc2ncnc(NCCc3ccc(Oc4ccccc4)cc3)c2c1	91.7
CO[C@H]1C[C@@H]2CC[C@@H](C)[C@@](O)(O2)C(=O)C(=O)N2CCCC[C@H]2C(=O)O[C@H]([C@H](C)C[C@@H]2CC[C@@H](O)[C@H](OC)C2)CC(=O)[C@H](C)/C=C(\C)[C@@H](O)[C@@H](OC)C(=O)[C@H](C)C[C@H](C)/C=C/C=C/C=C/1C	99
Cn1c2ccccc2c2c3c(c4c5ccccc5n(CCC#N)c4c21)CNC3=O	50.2
O=C1NC(=O)C(c2cn(CCCn3ccnc3)c3ccccc23)=C1Nc1ccccc1	88.3
O=C1NC(=O)C(c2cn(CCCO)c3ncccc23)=C1c1cnccn1	97.7

Study 3
Target: ABI1, truncated, D143A, DHFR fusion (Arabidopsis thaliana)
Technique: DHFR PCA, deep sequencing
Medium: yeast
Setting: methotrexate growth selection, single substitutions
With: (+)-ABA 1.4 µM
Relative to: wild-type fitted maximum
Direction: higher = stronger binding
Starting sequence: PYL1, truncated, DHFR fusion (Arabidopsis thaliana); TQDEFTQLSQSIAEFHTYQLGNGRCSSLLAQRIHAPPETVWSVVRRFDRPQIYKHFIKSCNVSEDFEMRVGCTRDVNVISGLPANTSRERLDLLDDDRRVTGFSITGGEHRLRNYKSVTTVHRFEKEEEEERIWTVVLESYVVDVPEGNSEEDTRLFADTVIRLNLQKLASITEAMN; partner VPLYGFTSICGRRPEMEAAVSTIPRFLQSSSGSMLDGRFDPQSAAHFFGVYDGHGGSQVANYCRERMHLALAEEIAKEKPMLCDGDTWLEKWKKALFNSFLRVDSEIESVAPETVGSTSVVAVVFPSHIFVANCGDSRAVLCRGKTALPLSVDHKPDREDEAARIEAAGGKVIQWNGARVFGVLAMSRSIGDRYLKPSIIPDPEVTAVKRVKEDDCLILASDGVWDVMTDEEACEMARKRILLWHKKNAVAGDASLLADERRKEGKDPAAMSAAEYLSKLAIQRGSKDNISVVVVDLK
Variant	relative binding score [%]
T73S	29.7
E130D	67.9
G23H	40.6
E129R	44.9
F47W	10.1
G148T	2.96
T173I	19.5
L20Q	65.5

Study 4
Target: Ras GTPase-activating protein-binding protein 1, full length (G3BP1, Homo sapiens, UniProt Q13283)
UniProt Q13283, sequence (whole entry, looked up): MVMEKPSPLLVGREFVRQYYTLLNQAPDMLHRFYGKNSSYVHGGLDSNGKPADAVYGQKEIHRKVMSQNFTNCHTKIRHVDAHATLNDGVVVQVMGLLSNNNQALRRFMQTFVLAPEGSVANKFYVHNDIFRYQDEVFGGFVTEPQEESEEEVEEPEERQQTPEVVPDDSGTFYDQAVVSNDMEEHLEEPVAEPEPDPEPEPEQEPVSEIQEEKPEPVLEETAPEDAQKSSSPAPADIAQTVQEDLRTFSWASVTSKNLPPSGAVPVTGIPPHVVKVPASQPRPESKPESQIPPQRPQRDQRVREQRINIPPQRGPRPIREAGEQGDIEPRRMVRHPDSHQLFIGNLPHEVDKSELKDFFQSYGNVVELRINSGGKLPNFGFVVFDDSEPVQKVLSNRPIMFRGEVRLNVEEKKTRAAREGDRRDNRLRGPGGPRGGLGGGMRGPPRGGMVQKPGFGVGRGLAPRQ
Technique: RNA Bind-n-Seq
Form: RNA
Medium: in vitro
Tested at: 200 nM
Setting: whole 134-nt RNA, ends assumed
With: 150 mM LiCl
Relative to: input library
Direction: higher = stronger binding
All molecules: 7-deaza-guanosine replaces G
All sequences stand within: GGGAGUUCUACAGUCCGACGAUC … UGGAAUUCUCGGGUGUCAAGG
Oligonucleotide	log2 enrichment
AAGUCCUGUGCUACACAUCGUAUGUACCGAAUCGGGAAAAAGGGUUUGGGUUUGGGAAAGUAUUAUGUUACGCCGUUCGGAUCUGCACUU	-1.59
CCUGUGCUACACAUCGUAUGUACCGAAUCGGGGUUUUUGGGGAAAGGGGUUUUUUUGGGGAAAGUAUUAUGUUACGCCGUUCGGAUCUGC	0.536
AGUUACGGUAGCAGUUCUCAGAGCAGCAGCUAUGGGCAGCCCCAGAGUGGGAGCUACAGCCAGCAGCCUAGCUAUGGUGGACAGCAGCAA	-1.93
UCCUGUGCUACACAUCGUAUGUACCGAAUCGGCCCCCCCGGCCCCCCCGGCCCCCCCGGGAAAGUAUUAUGUUACGCCGUUCGGAUCUGC	0.368
CCUGUGCUACACAUCGUAUGUACCGAAUCGGGAAAAAAGGGGAAAAAAGGAAAAAAGGGGAAAGUAUUAUGUUACGCCGUUCGGAUCUGC	0.218
UGGCCCUGGUGGCAUGCGGGGAGGAAGAGGUGGCCUCAUGGACCGUGGUGGUCCCGGUGGAAUGUUCAGAGGUGGCCGUGGUGGAGACAG	0.195
CUCAAGUCCUGUGCUACACAUCGUAUGUACCGAAUCGGAAAGGUUUGGAAAGGAAAGUAUUAUGUUACGCCGUUCGGAUCUGCACUUCCA	0.19
CCUCACCACUCCUUUCUCUUUCAUUCAGUUCCGCUCAGUGGACGAGACUACCCAGGCUAUGGCCUUUGAUGGCAUCAUCUUCCAGGGCCA	1.49

A few entries again (study 4):
Oligonucleotide	log2 enrichment
AAGUCCUGUGCUACACAUCGUAUGUACCGAAUCGGGAAAAAGGGUUUGGGUUUGGGAAAGUAUUAUGUUACGCCGUUCGGAUCUGCACUU	-1.59
CCUGUGCUACACAUCGUAUGUACCGAAUCGGGGUUUUUGGGGAAAGGGGUUUUUUUGGGGAAAGUAUUAUGUUACGCCGUUCGGAUCUGC	0.536
AGUUACGGUAGCAGUUCUCAGAGCAGCAGCUAUGGGCAGCCCCAGAGUGGGAGCUACAGCCAGCAGCCUAGCUAUGGUGGACAGCAGCAA	-1.93
UCCUGUGCUACACAUCGUAUGUACCGAAUCGGCCCCCCCGGCCCCCCCGGCCCCCCCGGGAAAGUAUUAUGUUACGCCGUUCGGAUCUGC	0.368
CCUGUGCUACACAUCGUAUGUACCGAAUCGGGAAAAAAGGGGAAAAAAGGAAAAAAGGGGAAAGUAUUAUGUUACGCCGUUCGGAUCUGC	0.218
